Assay results of several laboratories.
Each numbered part is a random draw from the data of one study; scales do not carry over between parts. Positions count from the first letter of the parent shown.

Study 1
Target: RNA binding protein fox-1 homolog 2, RRM domain, GST-SBP tag (RBFOX2, Homo sapiens, UniProt O43251-10, residues 100-194)
Method: RNA Bind-n-Seq
Molecule type: RNA
Sample: in vitro
Concentration: 365 nM
Setting: natural RNA segment, single round, ends assumed
Reference: no-protein control
Reading: higher = stronger binding
Endpoint: RBNS enrichment (R)
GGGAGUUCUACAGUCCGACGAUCAGAACUGCUGAGCGAGCUACUGGAAAGCCGUUUACACCAGACAGGCAGAGAGCAGAGAGCAGCCACUGUCACUAUCUUGCCAUCUCAUUCAGGGUCCUCUGAAAGUUACCUGGAAUUCUCGGGUGCCAA: 0.378
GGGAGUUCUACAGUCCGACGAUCUGGGAUCUACAGGCAGGGUAGGCACAGGUGCAGCCUAAGAAGGGAACCUGCUUCCUCUCCCUUCCAAAGACAGUGACAGCUGACUGAGGGCAAAGAGCAGGCACCACUCAUGGAAUUCUCGGGUGCCAA: 0.721
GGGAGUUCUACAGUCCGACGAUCAGGAAUUUGAACCAUAAAACACUAUCUGAUGCACAGAACACCUCUACUUUGAGACUCACCUCUCAUAAAGCUUCUUUUUCACAUUACUGUUAAAGACCAGACGUUCUAGAUGGAAUUCUCGGGUGCCAA: 0.361
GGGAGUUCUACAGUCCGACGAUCUGUGGCCACAGAAUGUAACCGUCCAGUUUCUGCCUUUCACUUUCUUGGGGGUUGCUUGUGAAAUUAGGCUAAGUCAUUUGUAGACUAAUCAGUGAUUGUAAGUUUGCCUGUGGAAUUCUCGGGUGCCAA: 2.78
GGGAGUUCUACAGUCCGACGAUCUACUUACUUAUUACCUAGAUUUUAAAUAGACAAUCCAAAGUCUCCCCUUCGUGUUGCCAUCAUCUUGUUGAAUCAGCCAUUUUAUCGAGGCACGUGAUCAGUGUUGCAACUGGAAUUCUCGGGUGCCAA: 0.489
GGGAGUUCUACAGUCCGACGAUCUGCAUGUUUGGCAGUUCCAUGUUACAGUCCAUUAGCGAGUGAACUUAGUGCCACAGGUAUUCAUUUAUUCAGGAAAGAAUUUUGCUUUUUGUAUUGUCUAAUCUCUUCAAUGGAAUUCUCGGGUGCCAA: 3.34

Study 2
Target: CCND3, cyclin fold, Cln2 fusion (human)
Method: yeast growth competition, sequencing
Sample: yeast
Setting: weak parent motif
Reference: not given
Reading: higher = stronger binding
Endpoint: normalised enrichment score
Starting sequence: CDC6 docking peptide (human); TLKGRRLVFDNQL
TLKFRRLVFDNQL [G4F]: 0.0116
TLKPRRLVFDNQL [G4P]: 0.117
TLLGRRLVFDNQL [K3L]: 0.144
TLKLRRLVFDNQL [G4L]: 0.0099
TLNGRRLVFDNQL [K3N]: 0.098
TLKGRLLVFDNQL [R6L]: 0.105
TLKGRRLVFDNQV [L13V]: 0.0937
TLKGRRLVSDNQL [F9S]: 0.0871
ILKGRRLVFDNQL [T1I]: 0.105

Study 3
Target: Sal-like protein 4, full length isoform A (SALL4, Homo sapiens, UniProt Q9UJQ4, residues 1-1053)
Sequence of UniProt Q9UJQ4 (whole entry, looked up): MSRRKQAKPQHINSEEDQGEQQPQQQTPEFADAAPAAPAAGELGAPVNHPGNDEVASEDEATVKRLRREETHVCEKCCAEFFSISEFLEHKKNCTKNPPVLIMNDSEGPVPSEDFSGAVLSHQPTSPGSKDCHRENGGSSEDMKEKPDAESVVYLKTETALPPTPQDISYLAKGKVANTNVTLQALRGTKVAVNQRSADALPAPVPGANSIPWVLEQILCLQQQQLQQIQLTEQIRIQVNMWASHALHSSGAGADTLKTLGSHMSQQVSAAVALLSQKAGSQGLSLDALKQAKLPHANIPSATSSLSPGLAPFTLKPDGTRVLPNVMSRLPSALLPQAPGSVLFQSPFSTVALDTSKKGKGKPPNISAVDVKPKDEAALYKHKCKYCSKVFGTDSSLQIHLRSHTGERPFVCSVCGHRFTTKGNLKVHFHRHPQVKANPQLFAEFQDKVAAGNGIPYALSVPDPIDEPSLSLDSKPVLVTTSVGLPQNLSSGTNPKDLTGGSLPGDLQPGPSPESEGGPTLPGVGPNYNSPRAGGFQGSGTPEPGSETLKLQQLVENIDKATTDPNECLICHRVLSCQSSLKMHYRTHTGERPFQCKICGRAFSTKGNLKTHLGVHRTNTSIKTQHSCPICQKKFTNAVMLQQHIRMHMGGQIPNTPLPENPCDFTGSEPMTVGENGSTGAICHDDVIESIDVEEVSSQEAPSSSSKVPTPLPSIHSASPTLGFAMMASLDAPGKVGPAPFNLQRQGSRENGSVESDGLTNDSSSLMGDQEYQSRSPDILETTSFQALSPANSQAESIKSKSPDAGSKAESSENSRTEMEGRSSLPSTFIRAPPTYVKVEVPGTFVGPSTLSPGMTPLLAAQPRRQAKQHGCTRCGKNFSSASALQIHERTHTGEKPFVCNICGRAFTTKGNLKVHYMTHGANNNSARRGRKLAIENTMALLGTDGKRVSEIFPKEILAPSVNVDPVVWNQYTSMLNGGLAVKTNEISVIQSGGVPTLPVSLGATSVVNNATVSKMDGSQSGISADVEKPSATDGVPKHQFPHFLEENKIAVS
Method: universal PBM
Molecule type: double-stranded DNA, one strand shown
Sample: in vitro
Concentration: 600 nM
Setting: 8-mer, flanks averaged, mean of replicates
Reading: higher = stronger binding
Endpoint: E-score
CCGCACAA: -0.074
AAAACGAA: 0.177
CCGTCTCA: -0.151
GGGCCCGA: -0.255
CAAATTCC: 0.224
CGTTTGAG: -0.00176

Further values, each from its own experiment
PhoQ, residues 284 288 289 292 302 303 NLAAMI  fold induction (PhoP, residues 12 14 15 18 19 SEGLL (Escherichia coli, UniProt P23836); Sort-seq, refers to: YFP reporter; E. coli; PhoQ-PhoP variant library, together with: 10 µM Mg2+; reference: high Mg2+ state, higher = stronger signaling): 5.42

For quick reference, copied from above (study 3):
AAAACGAA: 0.177
CGTTTGAG: -0.00176
